Experimental data of several laboratories.
Lines come from different studies, so protocols differ. “And” joins repeats or separate records; there may be more than shown. Numbers after ± are the reported error.

Compound	tested on	test	test system	setting	how to read	endpoint	result
CN1CCC[C@]1(C)/C=C/S(=O)(=O)NC(=O)Nc1c2c(cc3c1CCC3)CCC2	–	–	human, whole blood ex vivo	50 mg twice daily, day 1, 12 h, multiple ascending dose, with: LPS and ATP	–	IL-18 inhibition	84.2%
C=CC(=O)N1[C@@H](c2ccc3c(c2)OCO3)c2[nH]c3ccccc3c2C[C@H]1C(=O)N1CCN(C)CC1	human cyclin E1 wild type-3xFLAG:CDK2	co-IP with TMT proteomics, refers to: RBMX	–	concentration not given, P38159	reference: wild type DMSO	relative co-enrichment	109%
Cc1c(C)c2cccnc2c2ncccc12.O=[N+]([O-])[O-].O=c1c(C=NN=C([S-])Nc2ccccc2)coc2ccccc12.[Cu+2]	supercoiled pUC19 DNA	oxidative DNA cleavage	–	concentration not given, DMSO 10%, with: ascorbic acid	–	nicked circular DNA	100%
COc1cc(O)ccc1CCC(c1ccc(O)cc1)c1cc2c(c(C)c1O)OC(c1ccc(O)cc1)CC2 (mixture of isomers)	–	refers to: 12-HETE	human whole blood	0.3 µM, with: Escherichia coli	–	amount	29600 ± 5020 pg/mL blood
COC1CN([C@H]2CC[C@H]([C@@]3(C)Oc4c(Cl)cc(C(=O)NCc5c(SC)cc(C)[nH]c5=O)c(C)c4O3)CC2)C1	–	RNA-seq, refers to: RHBDF1 mouse homolog	mouse, HT-1376 xenograft, whole blood	dose not given	reference: vehicle	log2 fold change	4.64
C=C(NC(=O)c1csc(-c2nc3c(cc2O)-c2nc(cs2)C(=O)NC(C(C)O)C(=O)NC(=C(C)OC)c2nc(cs2)C(=O)NC2c4nc(cs4)C(=O)NC(COC(=O)c4c5c6c(cccc6n4O)COC(=O)C(OC4CC(C)(O)C(N(C)C)C(C)O4)C2OC5)c2nc-3cs2)n1)C(N)=O (centres unmarked)	Streptococcus pneumoniae	–	ATCC 49619, immunocompromised mice, lung infection	24 h, three times daily	colony counts	ED50	4.16 mg/kg
Cc1ncsc1-c1ccc(CNC(=O)[C@@H]2C[C@@H](O)CN2C(=O)[C@@H](NC(=O)CN2CCN(C3CN(CCNC(=O)C[C@@H]4N=C(c5ccc(Cl)cc5)c5c(sc(C)c5C)-n5c(C)nnc54)C3)CC2)C(C)(C)C)cc1	Spodoptera frugiperda	degrader, targeted LC-MS, refers to: BRD3	Sf9	0.001 µM	–	protein level	91.7% and 138% and 94.6% and 76.2%
Cc1cc(NC2CCN(C)CC2)ccc1-c1cc2c(N3CCC[C@H](C(=O)Nc4ccc(C#N)cc4)C3)ncnc2[nH]1	NCI-H2228	cell growth or viability, MTT	–	1 µg/mL, 72 h	–	inhibition	81.5%
COc1ccc(C(=O)CCc2cc(C(CCc3ccc(O)cc3OC)c3ccc(O)cc3)c(O)cc2OC)cc1 (racemic)	–	–	human blood	3 µM, with: A23187	–	5-HEPE level	181 ± 50 pg/mL
c1ccc(-c2n[nH]cc2-c2ccnc3ccccc23)nc1	orf19.3456 Candida albicans	kinase binding, MIB/MS competition	Candida albicans lysate	10 µM	reference: DMSO	log2 fold change	-0.46
Cc1ncsc1-c1ccc(C(C)NC(=O)C2CC(O)CN2C(=O)C(NC(=O)CCCCCCCCCCN2CCCC(Nc3ncc(Cl)c(Nc4ccccc4S(=O)(=O)C(C)C)n3)C2)C(C)(C)C)cc1 (centres unmarked)	22Rv1	RNA-seq, refers to: VANGL1 mRNA	–	concentration not given	reference: DMSO	log2 fold change	-1.54
Cc1cc(NC2CCN(C)CC2)ccc1-c1cc2c(N3CCC[C@H](C(=O)N[C@@H](C)c4ccccc4)C3)ncnc2[nH]1	NCI-H2228	cell growth or viability, MTT	–	5 µg/mL, 72 h	–	inhibition	93.3%
CNS(=O)(=O)Nc1nccc(Cc2c(C)c3ccc(Oc4ncccc4F)cc3oc2=O)c1F	Kelly	cell viability, CellTiter-Glo	–	7 days	–	IC50	682 nM
CC(=O)[O-].O.O.O.O.[Co+2].[O-]c1ccc(Br)cc1C=NCCN1CCOCC1	–	hydroxyl radical scavenging	–	80 µM	–	inhibition	15.6%
CCN(CC)CC(=O)Nc1cccc(-n2cc(-c3ccc4ccc(-c5cn(-c6cccc(NC(=O)CN(CC)CC)c6)nn5)cc4c3)nn2)c1	RCC4	PCR angiogenesis array, refers to: THBS2	–	5 x IC50, 6 h, normoxia	reference: untreated	fold regulation	-1.35 fold
Nc1nc(-c2ccc(OC(F)(F)F)cc2)nc2[nH]nc(Nc3ccccc3)c12	rhinovirus B42	viral cytopathic effect	HeLa	–	–	IC50	2400 nM
Cc1cc(NC2CCN(C)CC2)ccc1-c1cc2c(N3CCC[C@H](C(=O)NCc4ccc(OC(F)(F)F)cc4)C3)ncnc2[nH]1	NCI-H2228	cell growth or viability, MTT	–	0.2 µg/mL, 72 h	–	inhibition	75%
CC(C)c1ccc(N(C)c2ccc3c(c2)OCC[C@H]3CNc2cnccc2C(=O)O)cc1	WM-115	cell growth or viability, ATP luminescence	–	7 days	–	IC50	478 nM
Nc1nc(-c2ccccc2)nc2[nH]nc(Nc3cc(F)c(F)c(F)c3)c12	coxsackievirus B3	viral cytopathic effect	HeLa	–	–	IC50	60 nM
Nc1ncc(-c2cc(-c3cnn(CC(F)(F)F)c3)ncc2F)nc1C(=O)NC1CNCC(F)C1 (centres unmarked)	CDK11	KINOMEscan	–	1 µM	reference: DMSO control	remaining binding	75%
C=CC(=O)Nc1cccc(Cn2ncc3cnc(Nc4cnn(CCOC)c4)nc32)c1	IGF1R human	binding, KINOMEscan	–	100 nM	lower = stronger binding	percent of control	98%
O=C(NCc1ccc(OC(F)(F)F)cc1)[C@H]1CCCN(c2ncnc3[nH]c(-c4ccccc4)cc23)C1	NCI-H2228	cell growth or viability, MTT	–	0.04 µg/mL, 72 h	–	inhibition	11.5%
Nc1nc(-c2ccccc2)nc2[nH]nc(Nc3ccc(F)cc3F)c12	rhinovirus B42	viral cytopathic effect	HeLa	–	–	IC50	10 nM
CN1CCCNC(=O)c2cccc(c2)C(=O)NCCCN(C)CCCNc2cccc3c2C(=O)c2cccc(c2C3=O)NCCC1	SAS	RNA-Seq, refers to: MTAP mRNA	–	1 µM, 6 h	reference: untreated cells	log2 fold change	-1.23
Cc1ccc(-c2nc(N)c3c(Nc4ccc(F)cc4)n[nH]c3n2)cc1	coxsackievirus B3	viral cytopathic effect	HeLa	–	–	IC50	17000 nM
O=C(NCc1ccc(OC(F)(F)F)cc1)[C@H]1CCCN(c2ncnc3[nH]c(-c4ccc(C(F)(F)F)cc4)cc23)C1	NCI-H2228	cell growth or viability, MTT	–	0.2 µg/mL, 72 h	–	inhibition	17.4%

For quick reference, copied from above:
Compound	tested on	test	test system	setting	how to read	endpoint	result
O=C(NCc1ccc(OC(F)(F)F)cc1)[C@H]1CCCN(c2ncnc3[nH]c(-c4ccccc4)cc23)C1	NCI-H2228	cell growth or viability, MTT	–	0.04 µg/mL, 72 h	–	inhibition	11.5%
CC(=O)[O-].O.O.O.O.[Co+2].[O-]c1ccc(Br)cc1C=NCCN1CCOCC1	–	hydroxyl radical scavenging	–	80 µM	–	inhibition	15.6%
